Assay results pooled from the literature.
Each line is one published result; not all experiments were run side by side. Numbers after ± are the reported error.
Cell line: MDCK

CCC1(O)C([N+](=O)[O-])=NNc2nc(SC)nn21 (stereo not shown)  CC50 (MTT; 48 h): 419 ± 36 µM
c1nc(N2CCCCC2)ncc1CNC12CC3CC(CC(C3)C1)C2  CC50 (MTT): 33.9 µM
CCN(CC)CCC(=O)O[C@@H]1C[C@@H]2CC[C@@]1(C)C2(C)C  CC50 (cell growth or viability, MTT; 48 h): 814 µM
CC(=O)OC[C@H]1O[C@@H](Oc2cc(C)c3c(c2)C(=O)c2cccc(O)c2C3=O)[C@H](OC(C)=O)[C@@H](OC(C)=O)[C@@H]1OC(C)=O  CC50 (cell growth or viability, crystal violet; 72 h): > 100 µM
CCOC(=O)c1cnn2c1NN=C([N+](=O)[O-])C2(C)O (stereo not shown)  CC50 (MTT; 48 h): 139 ± 11 µM
OC12CC3CC(C1)CC(NCc1cnc(N4CCCCC4)nc1)(C3)C2  CC50 (MTT): > 300 µM
CCC1(O)C([N+](=O)[O-])=NNc2nc(C(F)(F)F)nn21 (stereo not shown)  CC50 (MTT; 48 h): 432 ± 28 µM
CCN(CC)CC#CCO[C@H]1CC[C@H](O)[C@@H]2[C@H]1[C@H]1C[C@@H]3[C@@]4(C)CCC[C@@](C)(C(=O)OC)[C@@H]4CC[C@@]23C=C1C(C)C  CC50 (cytotoxicity, MTT; 48 h): 92 µM
CCN(CC)CCCC(=O)O[C@@H]1C[C@@H]2CC[C@@]1(C)C2(C)C  CC50 (cell growth or viability, MTT; 48 h): 34 µM
CCN(CC)CC#CCOC(=O)[C@]1(C)CCC[C@]2(C)c3ccc(C(C)C)cc3CC[C@@H]12  CC50 (cytotoxicity, MTT; 48 h): 21 µM
CN(C)CCC(=O)O[C@@H]1C[C@@H]2CC[C@@]1(C)C2(C)C  CC50 (cell growth or viability, MTT; 48 h): > 1180 µM
COc1ccc(CNC23CC4CC(CC(C4)C2)C3)c(O)c1  CC50: 49.9 ± 12.3 µM
CC(C)C1=CC2=C(C=O)C[C@@H]3[C@](C)(CCC[C@@]3(C)C(=O)OCC#CCN3CCOCC3)[C@H]2CC1  CC50 (cytotoxicity, MTT; 48 h): 19.8 µM
COc1cc(-c2oc3cc(O)cc(O)c3c(=O)c2O[C@@H]2O[C@H](CO[C@@H]3O[C@@H](C)[C@H](OC(C)=O)[C@@H](O)[C@H]3OC(C)=O)[C@@H](O)[C@H](O)[C@H]2O)ccc1O  CC50 (MTT; 48 h): > 141 µM
C=C1C(=O)O[C@H]2C[C@H](C)C(/C=C/C(C)=O)=CC[C@H]12  CC50 (MTS): 1.6 µM
CC(C)c1ccc2c(c1)CC[C@H]1[C@](C)(C(=O)OCC#CCN3CCCC3)CCC[C@]21C  CC50 (cytotoxicity, MTT; 48 h): 30.7 µM
COc1cc(-c2oc3cc(O[C@@H]4O[C@H](CO)[C@@H](O)[C@H](O)[C@H]4O)cc(O)c3c(=O)c2O[C@@H]2O[C@H](CO[C@@H]3O[C@@H](C)[C@H](OC(C)=O)[C@@H](O)[C@H]3OC(C)=O)[C@@H](O)[C@H](O)[C@H]2O)ccc1O  CC50 (MTT; 48 h): > 115 µM
CCOC(=O)c1nc2n(n1)C(C)(O)C([N+](=O)[O-])=NN2 (stereo not shown)  CC50 (MTT; 48 h): 371 ± 22 µM
CCN(CC)CC#CCOC(=O)[C@]1(C)CCC[C@]2(C)[C@H]3C[C@H]4C(C(C)C)=C[C@]3(CC[C@H]21)[C@@H]1C(=O)CCC(=O)[C@@H]14  CC50 (cytotoxicity, MTT; 48 h): 57 µM
Cc1cc(-c2ccccc2)n2nc(C(=O)Nc3sc4c(c3C(N)=O)CCCCC4)nc2n1  CC50 (MTT; 48 h): > 250 µM
COc1ccc(CNC23CC4C5CC6CC4C(C2)C(C6)C5C3)c(O)c1  CC50: > 100 µM
CCN(CC)CC#CCOC(=O)[C@]1(C)CCC[C@]2(C)[C@H]3C[C@H]4C(C(C)C)=C[C@]3(CC[C@H]21)[C@@H]1C(=O)OC(=O)[C@@H]14  CC50 (cytotoxicity, MTT; 48 h): 77 µM
C1C2C1C1C3C4C5C6CC6C4C14CNCC54C23 (stereo not shown)  CC50 (3 (unit not given)): 40 µM
CCOC(=O)c1cnn2c1NN=C([N+](=O)[O-])C2(O)CC (stereo not shown)  CC50 (MTT; 48 h): 1060 ± 55 µM
CC(C)C1=CC2=C(C=O)C[C@@H]3[C@](C)(CCC[C@@]3(C)C(=O)OCC#CCN3CCCC3)[C@H]2CC1  CC50 (cytotoxicity, MTT; 48 h): 643 µM
COc1cc(-c2oc3cc(O)cc(O)c3c(=O)c2O[C@@H]2O[C@H](CO)[C@@H](O)[C@H](OC(C)=O)[C@H]2O)ccc1O  CC50 (MTT; 48 h): > 192 µM
CC(C)c1ccc2c(c1)CC[C@H]1[C@](C)(C(=O)OCC#CCN3CCOCC3)CCC[C@]21C  CC50 (cytotoxicity, MTT; 48 h): 89 µM
COc1cc(-c2oc3cc(O)cc(O)c3c(=O)c2O[C@@H]2O[C@H](CO)[C@@H](O)[C@H](O)[C@H]2OC(=O)c2cc(O)c(O)c(O)c2)ccc1O  CC50 (MTT; 48 h): > 159 µM
